Published values pooled from the literature.
Each numbered part is a random draw from the data of one study; scales do not carry over between parts. Changes are numbered by the printed parent chain.

Series 1 — method: protein-binding microarray; molecule type: double-stranded DNA, one strand shown; sample: in vitro; concentration: 250 nM; setting: 60-bp whole probe; added: salmon DNA 0.4 mg/ml; reference: random background probes; direction: higher = stronger binding; shared flanks, not repeated: GCCTAGCAC … GTCTTGATTCGCTTGACGCTGCTG
Target: Interferon regulatory factor 7, full length, phosphomimetic (IRF7, Homo sapiens, UniProt Q92985, residues 1-503, S101K/S471D/S472D/S475D/S476D/S477D/S483D/S484D/S487D)
Target sequence (chain): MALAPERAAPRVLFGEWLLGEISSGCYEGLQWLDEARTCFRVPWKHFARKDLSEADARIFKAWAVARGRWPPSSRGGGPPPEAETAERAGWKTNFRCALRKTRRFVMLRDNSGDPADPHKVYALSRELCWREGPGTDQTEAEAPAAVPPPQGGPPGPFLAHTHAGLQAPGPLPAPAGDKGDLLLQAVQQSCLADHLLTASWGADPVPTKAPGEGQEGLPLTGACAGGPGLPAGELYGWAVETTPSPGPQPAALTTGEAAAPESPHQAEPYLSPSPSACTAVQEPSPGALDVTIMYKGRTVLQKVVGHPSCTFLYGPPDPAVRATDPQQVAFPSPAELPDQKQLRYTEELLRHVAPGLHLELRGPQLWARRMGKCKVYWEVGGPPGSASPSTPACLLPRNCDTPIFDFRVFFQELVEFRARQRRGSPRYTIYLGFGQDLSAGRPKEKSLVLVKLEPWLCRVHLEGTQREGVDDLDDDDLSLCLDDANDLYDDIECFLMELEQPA
| Sequence | log fluorescence [z-score] |
| --- | --- |
| TCATCTCGGAGATCTCGAACTGTGCTA | 0.00998 |
| GTGTATATGACAATGATGTTGTGCTAG | -0.0591 |
| AACGGTATCGGACTGGGGACGTGCTAG | -0.0867 |
| TCATCTTTCGATGCTAAAACTGTGCTA | 1.31 |
| TTAGAGATCAGTCTCGATTAGTGCTAG | 1.11 |
| TCATTTCTATTTTCTGAACTGTGCTAG | 2.76 |
| TCACCTTCACCTCTCTGACTGTGCTAG | 0.139 |
| TCAAGGGTCTGTTTGGGACTGTGCTAG | -0.244 |
| TTAGGTTTCTGTATCGGTTAGTGCTAG | 3.37 |
| TTGGGTTTCGGTTTCGGTTAGTGCTAG | 14.2 |
| TTGTGTCTGGGCTTTTTCCCCGTGCTA | -1.14 |
| GTAGATTTCAGACTGGATTAGTGCTAG | 0.00066 |
| GACGGACTCCTTTTCCTGACGTGCTAG | 0.839 |
| GCCGATTTCAGTTCCGAGACGTGCTAG | 1.14 |

Series 2 — target: CCNB2, cyclin fold, Cln2 fusion (human); method: yeast growth competition, sequencing; sample: yeast; setting: strong parent motif; reference: not given; direction: higher = stronger binding
Starting sequence: PKMYT1 docking peptide (human); SFEPRNLLSLFED; partner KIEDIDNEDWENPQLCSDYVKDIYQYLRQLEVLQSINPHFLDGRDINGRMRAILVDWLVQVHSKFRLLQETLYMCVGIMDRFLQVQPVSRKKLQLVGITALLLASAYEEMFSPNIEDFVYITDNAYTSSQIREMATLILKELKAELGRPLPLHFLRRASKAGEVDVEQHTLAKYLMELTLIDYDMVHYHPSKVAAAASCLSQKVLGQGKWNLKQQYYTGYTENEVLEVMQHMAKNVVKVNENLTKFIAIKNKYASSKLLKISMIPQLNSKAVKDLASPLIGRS
| Variant | normalised enrichment score |
| --- | --- |
| SFEPRNLLSLFWD [E12W] | -0.315 |
| SFEPHNLLSLFED [R5H] | -0.397 |
| SFEPRNDLSLFED [L7D] | -0.613 |
| SPEPRNLLSLFED [F2P] | 1.05 |
| SFEPRNLLSLFRD [E12R] | 0.0671 |
| SFEPRNLLSLFVD [E12V] | 0.283 |
| SFEPRNLSSLFED [L8S] | 0.448 |
| SFEPRNLLRLFED [S9R] | 0.988 |
| SFEPRNLLSLTED [F11T] | -0.426 |
| SFELRNLLSLFED [P4L] | -0.437 |
| SFEPRTLLSLFED [N6T] | -0.565 |
| SFEPRNLLSLFEQ [D13Q] | 1.1 |
| SFEPRNVLSLFED [L7V] | -0.802 |
| SFEPKNLLSLFED [R5K] | 1.74 |
| SFEPRNLLSLLED [F11L] | 0.126 |
| SFETRNLLSLFED [P4T] | -0.17 |
| SFEPQNLLSLFED [R5Q] | 0.857 |
| SFGPRNLLSLFED [E3G] | 1.18 |
| SGEPRNLLSLFED [F2G] | 0.107 |
| SFEPRNLKSLFED [L8K] | -0.164 |
| SFPPRNLLSLFED [E3P] | 1.64 |
| SFEPRNNLSLFED [L7N] | -0.451 |
| SFEPRNLLSLFEI [D13I] | 0.243 |
| SWEPRNLLSLFED [F2W] | 0.441 |
| SFEPRNLLNLFED [S9N] | 0.837 |

Series 3 — method: protein binding microarray; molecule type: double-stranded DNA, one strand shown; sample: in vitro; concentration: not given; reference: not given; direction: higher = stronger binding
Target: Histone acetyltransferase KAT6A, winged helix 1, GST fusion (KAT6A, Homo sapiens, UniProt Q92794, residues 1-85)
Setting: 8-mer, flanks averaged, mean of 2 arrays, mostly near background
Residues (chain): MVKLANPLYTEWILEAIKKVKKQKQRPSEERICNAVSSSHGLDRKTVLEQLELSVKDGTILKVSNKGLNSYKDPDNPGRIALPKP
| Sequence | E-score |
| --- | --- |
| AGTTGCGG | 0.0945 |
| AGGTCCCC | 0.104 |
| TGGTACAA | -0.172 |
| CTTCATGA | -0.0144 |
| ACGTAAGG | -0.0982 |
| AAGCTCTC | -0.136 |
| AGGTGAAC | -0.116 |
| CCGTTAGG | 0.19 |
| CTTTGATA | -0.149 |
| GGCCCAGA | -0.0524 |
| AGCCTATG | -0.243 |
| AACGTCTA | -0.175 |
| GGAAACCC | 0.0117 |
| GAATCTAC | -0.0464 |
| AACCGAAA | -0.0878 |
| ATGTGCAA | -0.206 |
| GGATGTAA | 0.0318 |
| AGCGTCCT | 0.0391 |
| CAGCGGAC | 0.24 |
| GCGCCATA | 0.139 |
| ATAGAACG | -0.0257 |
| CAATGTGG | 0.0165 |
| TCCATGAA | -0.176 |
| CCTAATCG | -0.104 |
| TAGAGAGA | -0.181 |

Series 4 — method: RNA Bind-n-Seq; molecule type: RNA; sample: in vitro; concentration: not given; reference: input RNA pool; direction: higher = stronger binding
Target: RING finger protein unkempt homolog, zinc fingers 1-6, GST-SBP tag (UNK, Homo sapiens, UniProt Q9C0B0, residues 30-357)
Setting: RNA with constant flanks, human-mouse chimeric sites, ends assumed
Shared flanks, not repeated: GGGAGUUCUACAGUCCGACGAUC … CAACAGAGGAUUGAGCAUCA
Target sequence (chain): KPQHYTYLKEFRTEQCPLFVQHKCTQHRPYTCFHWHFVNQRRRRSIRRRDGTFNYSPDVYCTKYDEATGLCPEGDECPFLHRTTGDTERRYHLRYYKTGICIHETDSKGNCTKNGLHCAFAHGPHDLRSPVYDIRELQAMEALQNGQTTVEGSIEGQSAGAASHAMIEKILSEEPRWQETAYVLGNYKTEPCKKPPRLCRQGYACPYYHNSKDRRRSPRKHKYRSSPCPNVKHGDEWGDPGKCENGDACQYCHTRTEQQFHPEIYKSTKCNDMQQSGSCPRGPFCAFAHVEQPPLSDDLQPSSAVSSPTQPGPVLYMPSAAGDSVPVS
| Sequence | bound/input enrichment |
| --- | --- |
| AGAUUCCCCCUCCUGAGGCCUUCUCCAAAGUUGGAGUCUCUUACAGAUGCCUCAUCCCCUGUUAGCGUUUUAGUUUGGACCACACAACCUUGGACAAUUCCCGCCAACCAGGCAAUUUGC | 1.23 ratio |
| GGAUCUUUGGGACUGUUUUACUUAAUUGGUCAUUGAUAGCUUAACAAACAUGGAGAUAAGAUUAGAAAUCUUGACAUCAACAGGUAUUAAGCAGAAAAAACCAUGGCCACGUGUCUCCUG | 0.17 ratio |
| AUCAAAUACUUUGGGGACAUCAUUAGUGUGGGACAGAGACUGUUGCAAGGAGCUCGGAUCUUAGGGAUUCCUGUUAUUGUAACAGAACAAUACCCCAAAGGACUUGGCAGCACCGUUCAA | 0.141 ratio |
| GCUCCUCUUCCGCACUCAGCCUGGGGACACUGGGCUGGGACCAGAAUCCAGCUUUCUUUUAAAACUCUCAGUGUAACUGUAUCCCGUUUUUUUCUUUUUUUUUUAAAUAGUGUAUUUUUU | 16.3 ratio |
| CUAAUCCCCUUUACUGCUCCCCCACUUCUCAUGGUAAUAACAAAGUCUUAUAUCCCCGUCCUAGCUUUCACUCAGAUGGCUUAUGGAGCCAGUUUCCUAGCUUUCUUGGGAGGGAUCAGA | 0.46 ratio |
| CAACCUCAGAGCCCAGACUUCCUGGAUAUUACCAACCCUAAAGCGGUAUUAGAAAAUGCACUUAGGAACUUCGCCUGUCUGACGACUGGAGAUGUGAUUGCUAUCAACUACAAUGAGAAG | 0.68 ratio |
| CACACACUCUUCUGCGGGACCCUCAUCUUGCAGGCCCGGGCCUAUGUGGGACCGCACGUCCUGGCAGUGGUGACCCGGACAGGGUUCUGCACGGCAAAAGGGGGCCUGGUGAGCUCCAUC | 0.0525 ratio |
| GAUAAGAAAAACUUGUUGGAGACCCGCUUGCACAUCACUGGUAGAGACCUGAGGUGUCAAAUAGCUGAAACUUUCGGAUUUCAAGAAAAUUACAUCAAGAUCGUAAUAAAUAAGAAACAG | 0.427 ratio |
| AUAAAAGCUAUGUUGAGUGGCCCAGGUCAGUUUGCUGAGAAUGAAACCAACGAGGUCAAUUUUAGAGAGAUCCCCUCACAUGUGCUAUCAAAAGUGUGCAUGUAUUUUACCUACAAGGUC | 0.174 ratio |
| AAAUUUCCCCUCCUGAGGCCUUCUCCAAAGUUGGAGUCUCUUACAGAUGCCUCAUCCCCUGUUAGCGUUUUAGUUUGGACCACCCAGCCUUGGACAAUUCCCGCCAACCAGGCAAUUUGC | 1.53 ratio |
| CACAGAGCAGCACCUACCCCCUCCUCCUUUCCACACCUGCAAACUCUUUUACUUGGGCUGCAUAGUUAGUGUUAAUUCAUCUCAGCUUUGAGGGCUCCUGUGGCAAAUUCCCGGAUUAAA | 4.41 ratio |

Series 5 — method: DHFR PCA, deep sequencing; sample: yeast; added: (+)-ABA 2500 µM; reference: wild-type fitted maximum; direction: higher = stronger binding
Target: ABI1, truncated, D143A, DHFR fusion (Arabidopsis thaliana)
Setting: methotrexate growth selection, single substitutions
Starting sequence: PYL1, truncated, DHFR fusion (Arabidopsis thaliana); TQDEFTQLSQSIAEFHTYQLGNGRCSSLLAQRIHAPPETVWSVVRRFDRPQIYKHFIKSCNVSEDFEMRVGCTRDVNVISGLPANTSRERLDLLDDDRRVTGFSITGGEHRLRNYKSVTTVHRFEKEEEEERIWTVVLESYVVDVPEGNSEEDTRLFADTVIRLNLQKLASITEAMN
| Variant | relative binding score [%] |
| --- | --- |
| T160S | 90.3 |
| Y141M | 62.7 |
| R49V | 90.6 |
| H55D | 94.3 |
| E128D | 95.2 |
| T86C | 93.5 |
| M68S | 87.6 |
| A35R | 76.9 |
| F66D | 97.9 |
| T106A | 92.2 |
| R111H | 73.5 |
| V76A | 82.6 |
| Y115C | 26.4 |
| T17Y | 82.6 |
| T173Q | 75.7 |
| F157W | 58.8 |

A few entries again (series 3):
| Sequence | E-score |
| --- | --- |
| CTTCATGA | -0.0144 |
| ACGTAAGG | -0.0982 |
| AAGCTCTC | -0.136 |
| AGGTGAAC | -0.116 |
| CCGTTAGG | 0.19 |
| CTTTGATA | -0.149 |
| GGCCCAGA | -0.0524 |
| AGCCTATG | -0.243 |
| AACGTCTA | -0.175 |
| GGAAACCC | 0.0117 |
| GAATCTAC | -0.0464 |
| AACCGAAA | -0.0878 |
| ATGTGCAA | -0.206 |
| GGATGTAA | 0.0318 |
